# Results from different studies.
# Numbers after ± are the reported error.
SMILES,test,test system,conditions,how to read,quantity,result
CCN1[C@@H](C(=O)NC23CCC(C(=O)O)(CC2)CC3)[C@H](c2cccc(Cl)c2F)[C@]2(C(=O)Nc3cc(Cl)ccc32)C12CCCCC2,,patients with advanced solid tumours,"oral, 150 mg",,Fatigue incidence,12.5%
O=c1ccc2c(OCCCCOc3ccccc3)c3ccoc3cc2o1,,male and female Lewis rats,"oral gavage, 50 mg/kg daily, 6 months",,hematology and blood chemistry,no effect
C=CCNc1c(O)cc2c(O)c1C[C@@H](C)C[C@H](OC)[C@H](O)[C@@H](C)/C=C(\C)[C@H](OC(N)=O)[C@@H](OC)/C=C\C=C(/C)C(=O)N2,,unresectable or metastatic sarcoma,"intravenous, 500 mg/m^2, grade 3-4 lab change",,patients with ALP increase,0%
O=C1Nc2cc3[nH]nc(-c4ccncc4)c3cc2CN1Cc1ccccc1,CTCAE v4.03,advanced solid tumour patients,"intravenous, 1.8 mg/kg, schedules 1/2",,patients with acneiform dermatitis,0%
CC(C)[C@H](N)C(=O)NCCCS(=O)(=O)O,,"human, plasma","oral, 265 mg twice daily, 2 h, week 65",,plasma concentration,3550 ng/mL
[O-][S+]1CCc2nc(N3CCC(c4ncc(Cl)cn4)CC3)nc(NC3(CO)CCC3)c21 (stereo not drawn),item: Diarrhoea,healthy male humans,"multiple doses, all groups",,adverse event incidence,6.3%
NCCCC[C@@H]1NC(=O)[C@@H](Cc2c[nH]c3ccccc23)NC(=O)[C@H](c2ccccc2)NC(=O)[C@@H]2C[C@@H](OC(=O)NCCN)CN2C(=O)[C@H](Cc2ccccc2)NC(=O)[C@H](Cc2ccc(OCc3ccccc3)cc2)NC1=O,,healthy human volunteers,600 µg twice daily,,subjects with adverse event Hyperhidrosis,2%
CC1(C)[C@H](C(=O)O[C@H](C#N)c2cccc(Oc3ccccc3)c2)[C@@H]1C=C(Br)Br,item: CYP3A4,"human, age 1 year, recombinant human CYP3A4",0.1 µM,,enzyme contribution to clearance,0.62%
CC/C(=C(\c1ccccc1)c1ccc(OCCN(C)C)cc1)c1ccccc1,,"CD-1 mouse, male, lung","intraperitoneal, 1 mg/kg",,half-life,5.8 h
CC(C)(C)c1cc(-n2nc3ccccc3n2)c(O)c(C(C)(C)C)c1,,human aged 16-21 years,"concentration not given, foundation, 95th percentile",,daily dermal exposure dose,3.21 ng/kg/day
CC(C)[C@@H]1NC(=O)CNC(=O)[C@H](CC(N)=O)NC(=O)[C@H](CCCNC(=N)N)NC(=O)[C@H](Cc2ccc(O)cc2)NC(=O)[C@H](C(C)C)NC(=O)[C@@H](NC(=O)[C@@H](NC(=O)[C@H](CC(N)=O)NC(=O)[C@H](Cc2c[nH]c3ccccc23)NC(=O)[C@H](C)NC(=O)[C@H](Cc2ccccc2)NC(=O)CN)C(C)C)CSSC[C@@H](C(=O)N[C@@H](Cc2cnc[nH]2)C(=O)N[C@@H](CCCNC(=N)N)C(=O)N[C@@H](CCCNC(=N)N)C(=O)N[C@@H](C)C(=O)N[C@@H](CC(N)=O)C(N)=O)NC(=O)[C@H](C(C)C)NC(=O)[C@H](CCCNC(=N)N)NC1=O,,"ICR mouse, blood","intramammary, 5 mg/kg, day 5, 3 d dosing",,creatinine,84.9 ± 4.37 µmol/L
C1=Cc2nc1cc1ccc([n-]1)c(C1CC1)c1nc(cc3ccc([n-]3)c2C2CC2)C=C1.CC(=O)[O-].[Mn+3],LC-MS/MS,"Sprague-Dawley rat, plasma","oral gavage, dose not given, 120 min, individual rat Rat2",,plasma concentration,151 ng/mL
CC[C@H](C)[C@H](NC(=O)[C@H](Cc1ccccc1)NC(=O)[C@H](CCC(=O)O)NC(=O)[C@H](CCCNC(=N)N)NC(=O)[C@H](C)NC(=O)[C@H](C)NC(=O)[C@H](CCC(N)=O)NC(=O)[C@H](CCC(=O)O)NC(=O)[C@H](CCC(=O)O)NC(=O)[C@H](CC(C)C)NC(=O)[C@H](Cc1ccc(O)cc1)NC(=O)[C@H](CO)NC(=O)[C@H](CO)NC(=O)[C@@H](NC(=O)[C@H](CC(=O)O)NC(=O)[C@H](CO)NC(=O)[C@@H](NC(=O)[C@H](Cc1ccccc1)NC(=O)[C@@H](NC(=O)CNC(=O)[C@H](CCC(=O)O)NC(=O)[C@H](C)NC(=O)CCc1cnc[nH]1)[C@@H](C)O)[C@@H](C)O)C(C)C)C(=O)N[C@@H](C)C(=O)N[C@@H](Cc1c[nH]c2ccccc12)C(=O)N[C@@H](CC(C)C)C(=O)N[C@H](C(=O)N[C@@H](CCCNC(=N)N)C(=O)NCC(=O)N[C@@H](CCCNC(=N)N)C(=O)N[C@@H](CCCCNC(=O)COCCOCCNC(=O)COCCOCCNC(=O)CC[C@H](NC(=O)CCCCCCCCCCCCCCCCC(=O)O)C(=O)O)C(=O)NCC(=O)NCC(=O)N[C@@H](CO)C(=O)N[C@@H](CCSC)C(=O)N[C@H](C(=O)N[C@@H](CCCCNc1c(NCCCCCN(O)C(=O)CCC(=O)NCCCCCN(O)C(=O)CCC(=O)NCCCCCN(O)C(C)=O)c(=O)c1=O)C(=O)O)C(C)C)C(C)C [zirconium-89 labelled],ex vivo gamma counting,"male Sprague-Dawley rats, muscle","intravenous, 1 nmol, 72 h, mean of 3 animals",,tissue uptake,0.046 %ID/g
C[C@@H]1OC(=O)NN=C1c1ccc(-c2ccc(F)cc2)c(C(F)(F)F)c1,"phase I trial, item: Fatigue worst grade 1",human patients,10 mg loading then 0.5 mg daily,,patients with adverse event,100%
N#CCNC(=O)c1ccc(-c2ccnc(Nc3ccc(N4CCOCC4=O)cc3)n2)cc1,"population PK model, NONMEM",human,"metabolite of momelotinib, typical value, final model",,CLm/F,24.9 L/h
COc1ncccc1-c1cnn2ccc(N3CCN(C(=O)OC(C)C)CC3)nc12,,"mouse nerve ligation model, plasma","oral, 10 mg/kg, 120 min after last dose, repeat dosing day 2",,drug concentration,2400 nM
C[C@@H](NC(=O)N1C(=O)[C@H](Cc2ccnc(N)c2)[C@H]1C(=O)O)C1CCCCC1,,healthy Chinese adult volunteers,"continuous intravenous infusion, dose not given, 5.0 days, CTCAE 5.0, all doses",,urine occult blood positive,7.5%
C=CC(=O)N1CC[C@H](n2nc(C#Cc3cc(OC)cc(OC)c3)c3c(N)ncnc32)C1,,human patients,"oral, dose not given, QD regimen, adverse drug reaction, added: any phosphate binder",,"decreased appetite, any grade",47.5%
O=S(=O)(Nc1ccccc1)c1ccc(NC(=S)Nc2ccccc2)cc1,item: MO%,"female mouse, blood","oral, 80 mg/kg daily, 14 days",,blood cell fraction,4.86%
Cc1cccc(Cn2nc(C3CC3)c3c(NC(=O)c4cnc5cc(OCCN6CCN(C)CC6)ccn45)cccc32)n1,"CTCAE v4.03, item: blood CPK increased",platinum-resistant ovarian cancer patients,"oral, dose not given, added: pembrolizumab IV every 3 weeks",,all-cause adverse events,18.2%
CCC[C@@](N)(CO)CCc1ccc(OCCCCCC(C)C)cc1,,"hound dogs, male","oral, 10 mg/kg, capsule, fed state, geometric mean",,AUC(0-inf),14.7 µM·h
CCS(=O)(=O)Nc1ccc(Oc2ccc(F)cc2F)c(-c2cn(C)c(=O)c3[nH]ccc23)c1,myocardial infarction leading to discontinuation,"human, relapsed/refractory AML","oral, dose not given",,treatment-emergent adverse events,5%
O=C(c1ccc(F)c(F)c1Nc1ccc(I)cc1F)N1CC(O)([C@@H]2CCCCN2)C1,,human patients,"oral, 1 mg/kg, age ≥18 years",,AE causing dose modification,100%
CO[C@H]1C[C@@H]2CC[C@@H](C)[C@@](O)(O2)C(=O)C(=O)N2CCCC[C@H]2C(=O)O[C@H]([C@H](C)C[C@@H]2CC[C@@H](OC(=O)NCCOCCOCCOCCOCCOCCOCCOCCOCCC(=O)N3CCc4cc(Cn5nc(-c6ccc7oc(N)nc7c6)c6c(N)ncnc65)ccc4C3)[C@H](OC)C2)C[C@@H](O)[C@H](C)/C=C(\C)[C@@H](O)[C@@H](OC)C(=O)[C@H](C)C[C@H](C)/C=C/C=C/C=C/1C,,patients with advanced solid tumours,"intravenous, 6 mg weekly, any grade",,maculopapular rash incidence,25%
COc1cc(N2CCC(N3CCN(C)CC3)CC2)ccc1Nc1ncnc(Nc2ccccc2S(=O)(=O)C(C)C)n1,item: Nausea,Japanese patients with solid tumours,"oral, dose not given, all grades",,treatment-emergent adverse events,8 number (percent)
CN1CC[C@@H](c2c(O)cc(O)c3c(=O)cc(-c4ccc(C(F)(F)F)cc4Cl)oc23)[C@@H]1CO,item: Chills,B-cell malignancies or AML,"oral, 50 mg, continuous dosing",,patients with adverse event,12.5%
COc1cc2c(Oc3ccc4[nH]c(C)cc4c3F)ccnc2cc1OCC1(N)CC1,,paediatric recurrent refractory sarcoma,8 mg,,grade 3 Cholesterol elevation,0%
Clc1ccc(-c2ccccc2)cc1,,"Sprague-Dawley rats, female, serum","inhalation, 23 µg/rat, 0 h after exposure",,potassium,6 ± 1 mmol/L
C[C@]1(CO)Cc2ncn(-c3ccc(C#N)c(Cl)c3)c2C(=O)O1,item: involuntary muscle contractions,human,80 mg single dose,,subjects with drug-related TEAE,0%
N#C/N=C1\SCCN1Cc1ccc(Cl)nc1,,soil,"28 days, nominal 10",,concentration,0.19 mg/kg dry soil
N[C@@H]1c2ccccc2OC12CCN(c1cnc3c(N4CCCc5ncccc54)n[nH]c3n1)CC2,,patients advanced metastatic solid tumours,"oral, dose not given, dose escalation total",,incidence grade ≥3 TEAE,50%
Oc1ccc(CSCc2ccc(O)cc2)cc1,,ICR mice male,"oral, 6000 mg/kg, day 8, acute toxicity",reference: day 1,body weight gain,6.05 ± 1.35 g
COc1ccc2nc3cc(Cl)ccc3c(Nc3cc(CN4CCCC4)c(O)c(CN4CCCC4)c3)c2n1,,"mouse, blood","intraperitoneal, 28 mg/kg",,monocyte count,0.2 10⁹/L
CC(=O)c1c([O-])cc(C)oc1=O.[Na+],,"Wistar rat, male, serum","oral, 200 mg/kg, no CYP inhibitor",,mean residence time,7.29 ± 0.23 h
CCc1ccc(CC/C=C/c2ccc3c(c2)C(=O)CC3)cc1,,"Sprague-Dawley rat, male, serum","oral, 30 mg/kg/day, 14 days",,total protein,54.8 g/L
CC(C)NCCCC[C@@H]1NC(=O)[C@H](Cc2ccc(O)cc2)NC(=O)[C@H](Cc2ccccc2)NC(=O)CC[C@H](C(=O)N[C@@H](CCCCNC(C)C)C(=O)N[C@@H](CCCCNC(=O)[C@H](CCC(=O)O)NC(=O)[C@H](CCC(=O)O)NC(=O)[C@H](CCC(=O)O)NC(=O)CN2CCN(CC(=O)O)CCN(CC(=O)O)CC2)C(N)=O)NC(=O)CNC(=O)[C@H](Cc2ccc3ccccc3c2)NC(=O)[C@@H](CCCNC(=N)N)NC1=O [fluorine-18 labelled],radio-HPLC,human serum,"2 h, 37 °C",,intact compound,> 99%
CC(=O)c1c(C)c2cnc(Nc3ccc(C4CCN(CCS(C)(=O)=O)CC4)cn3)nc2n(C2CCCC2)c1=O,,HR+/HER2- advanced breast cancer patients,"oral, dose not given, grade 3 or 4",,lymphocytopenia,7.4%
O=C(Nc1ccccc1)C1CCN(C(=O)Oc2cccnc2)CC1,adverse event reporting,healthy women,"oral, 20 mg, 7 days",,subjects with blurred vision,0%
CCCCCCCCCC(=O)N[C@@H](Cc1c[nH]c2ccccc12)C(=O)N[C@H](CC(N)=O)C(=O)N[C@@H](CC(=O)O)C(=O)N[C@@H]1C(=O)NCC(=O)N[C@@H](CCCN)C(=O)N[C@@H](CC(=O)O)C(=O)N[C@H](C)C(=O)N[C@@H](CC(=O)O)C(=O)NCC(=O)N[C@H](CO)C(=O)N[C@@H]([C@H](C)CC(=O)O)C(=O)N[C@@H](CC(=O)c2ccccc2N)C(=O)O[C@@H]1C,population PK model,human,"intravenous, dose not given, two-compartment model",,peripheral volume,2.98 L

# Excerpt of the above:
SMILES,test,test system,conditions,how to read,quantity,result
CC/C(=C(\c1ccccc1)c1ccc(OCCN(C)C)cc1)c1ccccc1,,"CD-1 mouse, male, lung","intraperitoneal, 1 mg/kg",,half-life,5.8 h
CC(C)(C)c1cc(-n2nc3ccccc3n2)c(O)c(C(C)(C)C)c1,,human aged 16-21 years,"concentration not given, foundation, 95th percentile",,daily dermal exposure dose,3.21 ng/kg/day
CC(C)[C@@H]1NC(=O)CNC(=O)[C@H](CC(N)=O)NC(=O)[C@H](CCCNC(=N)N)NC(=O)[C@H](Cc2ccc(O)cc2)NC(=O)[C@H](C(C)C)NC(=O)[C@@H](NC(=O)[C@@H](NC(=O)[C@H](CC(N)=O)NC(=O)[C@H](Cc2c[nH]c3ccccc23)NC(=O)[C@H](C)NC(=O)[C@H](Cc2ccccc2)NC(=O)CN)C(C)C)CSSC[C@@H](C(=O)N[C@@H](Cc2cnc[nH]2)C(=O)N[C@@H](CCCNC(=N)N)C(=O)N[C@@H](CCCNC(=N)N)C(=O)N[C@@H](C)C(=O)N[C@@H](CC(N)=O)C(N)=O)NC(=O)[C@H](C(C)C)NC(=O)[C@H](CCCNC(=N)N)NC1=O,,"ICR mouse, blood","intramammary, 5 mg/kg, day 5, 3 d dosing",,creatinine,84.9 ± 4.37 µmol/L
C1=Cc2nc1cc1ccc([n-]1)c(C1CC1)c1nc(cc3ccc([n-]3)c2C2CC2)C=C1.CC(=O)[O-].[Mn+3],LC-MS/MS,"Sprague-Dawley rat, plasma","oral gavage, dose not given, 120 min, individual rat Rat2",,plasma concentration,151 ng/mL
CC[C@H](C)[C@H](NC(=O)[C@H](Cc1ccccc1)NC(=O)[C@H](CCC(=O)O)NC(=O)[C@H](CCCNC(=N)N)NC(=O)[C@H](C)NC(=O)[C@H](C)NC(=O)[C@H](CCC(N)=O)NC(=O)[C@H](CCC(=O)O)NC(=O)[C@H](CCC(=O)O)NC(=O)[C@H](CC(C)C)NC(=O)[C@H](Cc1ccc(O)cc1)NC(=O)[C@H](CO)NC(=O)[C@H](CO)NC(=O)[C@@H](NC(=O)[C@H](CC(=O)O)NC(=O)[C@H](CO)NC(=O)[C@@H](NC(=O)[C@H](Cc1ccccc1)NC(=O)[C@@H](NC(=O)CNC(=O)[C@H](CCC(=O)O)NC(=O)[C@H](C)NC(=O)CCc1cnc[nH]1)[C@@H](C)O)[C@@H](C)O)C(C)C)C(=O)N[C@@H](C)C(=O)N[C@@H](Cc1c[nH]c2ccccc12)C(=O)N[C@@H](CC(C)C)C(=O)N[C@H](C(=O)N[C@@H](CCCNC(=N)N)C(=O)NCC(=O)N[C@@H](CCCNC(=N)N)C(=O)N[C@@H](CCCCNC(=O)COCCOCCNC(=O)COCCOCCNC(=O)CC[C@H](NC(=O)CCCCCCCCCCCCCCCCC(=O)O)C(=O)O)C(=O)NCC(=O)NCC(=O)N[C@@H](CO)C(=O)N[C@@H](CCSC)C(=O)N[C@H](C(=O)N[C@@H](CCCCNc1c(NCCCCCN(O)C(=O)CCC(=O)NCCCCCN(O)C(=O)CCC(=O)NCCCCCN(O)C(C)=O)c(=O)c1=O)C(=O)O)C(C)C)C(C)C [zirconium-89 labelled],ex vivo gamma counting,"male Sprague-Dawley rats, muscle","intravenous, 1 nmol, 72 h, mean of 3 animals",,tissue uptake,0.046 %ID/g
C[C@@H]1OC(=O)NN=C1c1ccc(-c2ccc(F)cc2)c(C(F)(F)F)c1,"phase I trial, item: Fatigue worst grade 1",human patients,10 mg loading then 0.5 mg daily,,patients with adverse event,100%
